Measured values gathered from unrelated publications.
Compare with care: the assays were run in different laboratories.
Sequence of UniProt Q9P1W9 (whole entry, looked up): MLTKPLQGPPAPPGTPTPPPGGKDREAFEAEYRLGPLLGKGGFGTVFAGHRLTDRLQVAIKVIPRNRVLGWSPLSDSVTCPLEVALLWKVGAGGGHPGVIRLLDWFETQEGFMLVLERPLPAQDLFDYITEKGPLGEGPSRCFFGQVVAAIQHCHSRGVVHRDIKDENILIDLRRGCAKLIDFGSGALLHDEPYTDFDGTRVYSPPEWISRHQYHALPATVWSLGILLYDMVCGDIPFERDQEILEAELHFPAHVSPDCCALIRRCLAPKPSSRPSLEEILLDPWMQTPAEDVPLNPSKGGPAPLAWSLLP
Sequence of UniProt P10721 (whole entry, unmodified, looked up): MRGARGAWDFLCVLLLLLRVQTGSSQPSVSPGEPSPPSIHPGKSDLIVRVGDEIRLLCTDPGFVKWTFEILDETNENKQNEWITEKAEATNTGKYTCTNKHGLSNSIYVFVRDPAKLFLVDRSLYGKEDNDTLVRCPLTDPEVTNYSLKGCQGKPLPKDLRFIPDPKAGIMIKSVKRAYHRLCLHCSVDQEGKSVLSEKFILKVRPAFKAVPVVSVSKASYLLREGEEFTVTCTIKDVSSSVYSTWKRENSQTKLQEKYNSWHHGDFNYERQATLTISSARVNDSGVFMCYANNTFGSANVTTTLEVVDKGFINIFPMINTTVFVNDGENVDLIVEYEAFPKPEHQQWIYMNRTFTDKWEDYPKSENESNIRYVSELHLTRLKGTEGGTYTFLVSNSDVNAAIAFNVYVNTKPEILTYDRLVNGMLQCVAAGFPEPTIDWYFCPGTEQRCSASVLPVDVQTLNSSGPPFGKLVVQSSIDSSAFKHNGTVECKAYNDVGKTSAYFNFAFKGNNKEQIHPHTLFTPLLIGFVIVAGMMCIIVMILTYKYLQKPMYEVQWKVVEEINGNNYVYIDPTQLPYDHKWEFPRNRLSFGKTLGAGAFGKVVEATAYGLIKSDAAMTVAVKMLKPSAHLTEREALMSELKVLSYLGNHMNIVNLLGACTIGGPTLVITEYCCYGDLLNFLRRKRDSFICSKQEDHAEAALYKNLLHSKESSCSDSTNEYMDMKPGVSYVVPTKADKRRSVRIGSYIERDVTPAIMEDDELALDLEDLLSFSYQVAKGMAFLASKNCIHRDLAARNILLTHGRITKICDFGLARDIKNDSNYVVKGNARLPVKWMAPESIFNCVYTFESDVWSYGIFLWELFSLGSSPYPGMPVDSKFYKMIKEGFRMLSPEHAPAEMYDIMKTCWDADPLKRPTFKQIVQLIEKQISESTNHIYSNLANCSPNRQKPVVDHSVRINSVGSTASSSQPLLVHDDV
Sequence of UniProt P31152 (whole entry, looked up): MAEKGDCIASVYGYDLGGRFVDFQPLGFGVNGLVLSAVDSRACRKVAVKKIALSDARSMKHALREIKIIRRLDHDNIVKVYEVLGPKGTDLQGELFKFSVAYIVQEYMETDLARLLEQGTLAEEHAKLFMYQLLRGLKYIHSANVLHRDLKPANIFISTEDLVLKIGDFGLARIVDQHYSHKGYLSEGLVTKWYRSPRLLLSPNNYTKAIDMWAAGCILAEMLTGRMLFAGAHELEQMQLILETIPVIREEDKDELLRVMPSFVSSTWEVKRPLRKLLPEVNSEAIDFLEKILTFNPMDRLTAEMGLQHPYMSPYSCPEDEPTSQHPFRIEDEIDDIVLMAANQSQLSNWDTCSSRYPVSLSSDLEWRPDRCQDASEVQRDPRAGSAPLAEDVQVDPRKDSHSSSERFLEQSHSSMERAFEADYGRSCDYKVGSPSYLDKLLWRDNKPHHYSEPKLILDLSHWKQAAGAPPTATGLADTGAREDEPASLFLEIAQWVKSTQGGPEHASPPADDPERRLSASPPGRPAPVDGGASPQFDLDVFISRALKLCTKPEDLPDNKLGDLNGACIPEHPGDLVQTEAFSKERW

With `CC(C)CC(=O)OC[C@H]1O[C@@](C#N)(c2ccc3c(N)ncnn23)[C@H](O)[C@@H]1O` the fraction unbound was 0.289 (monkey, plasma).
`N=C(N)NCCC[C@H](NC(=O)[C@H](Cc1ccccc1)NC(=O)[C@H](CCC(N)=O)NC(=O)OCc1ccccc1)C(=O)c1nccs1` gave an AUC(0-inf) of 1190 ng·h/mL (female C57BL/6 mouse, plasma; intravenous, 5 mg/kg).
`CN(C)C1(CNC(=O)c2ccc3c(c2)CCN3C(=O)c2ccccc2)CCOCC1` gave a concentration of 2300 ng/mL (male C57BL/6 mouse, plasma; intraperitoneal, 50 mg/kg, 30 min).
The MRT(0-inf) of `CC[C@H](C)CCCCC(=O)N[C@@H](CCN)C(=O)N[C@H](C(=O)N[C@@H](CCN)C(=O)N[C@H]1CCNC(=O)[C@H]([C@@H](C)O)NC(=O)[C@H](CCN)NC(=O)[C@H](CCN)NC(=O)[C@H](CC(C)C)NC(=O)[C@@H](CC(C)C)NC(=O)[C@H](CCN)NC1=O)[C@@H](C)O` is reported as 1.83 h (male Sprague-Dawley rat, plasma; intravenous, 5 mg/kg).
The tracer uptake of `[18FH]` is reported as 0.09 %ID/g (mouse, stomach; intravenous, 1 h).
`Cc1[nH]c(C)c(S(=O)(=O)Nc2ccc(S(F)(F)(F)(F)F)cc2)c1C(=O)N1CCC(F)(F)C1` gave a Cmax of 3.5 µM (mouse, brain; intraperitoneal, 40 mg/kg).
With `CCOC(=O)c1nnn(-c2cccc(NC(=O)Nc3ccc(Cl)c(Cl)c3)c2)c1C` the MIC was > 64 µg/mL (Mycobacteroides chelonae; microbial growth, broth dilution; ATCC35752; 48 h).
For `Cc1nn(C)cc1-c1nc2c(N3CCN(Cc4ccc(Cl)cc4)CC3)c(Cl)cnc2[nH]1`, the remaining binding was 2.5% (KIT (Homo sapiens, UniProt P10721, V559D); binding, competition with immobilised ligand; 1 µM).
With `CC[C@H](C)[C@@H]1NC(=O)[C@H](CCCNC(=N)N)NC(=O)C[C@@H](c2cccc3ccccc23)NC(=O)[C@@H]2CSSC[C@H](NC(=O)C[C@@H](c3cccc4ccccc34)NC(=O)[C@H](CCCNC(=N)N)NC(=O)[C@@H]3CCCN3C(=O)[C@@H]3CCCN3C1=O)C(=O)N[C@@H](Cc1ccccc1)C(=O)N1CCC[C@H]1C(=O)N[C@@H](CC(=O)O)C(=O)N[C@@H](CC(=O)O)C(=O)N[C@@H](Cc1ccccc1)C(=O)N2` the compound remaining was 75% (chemical stability, HPLC; human, serum; 0.6 mg/mL, 12 h).
For `O=C(Nc1cccnn1)N1CCN([C@@H]2CCOc3cc(C(F)(F)F)ccc32)CC1`, the bioavailability was 69% (male Sprague-Dawley rat, plasma; oral, 1 mg/kg).
The AUC(0-inf) of `CC(C)(C)[C@H](NC(=O)[C@H](CCONC(=N)N)NC(=O)Cc1ccc(CNC(=N)N)cc1)C(=O)N[C@@H](CCONC(=N)N)C(=O)NCc1ccc(C(=N)N)cc1` is reported as 2290 ng·h/mL (male Sprague-Dawley rat, plasma; intravenous, 1 mg/kg).
`C=C(C)[C@@H]1CC[C@]2(NCCN3CCS(=O)(=O)CC3)CC[C@]3(C)[C@H](CC[C@@H]4[C@@]5(C)CC=C(C6=CC[C@@](COc7ncccc7C#N)(C(=O)O)CC6)C(C)(C)[C@@H]5CC[C@]43C)[C@@H]12` has an AUC(0-inf) of 58900 ng·h/mL (human, plasma; oral, 100 mg, fed, tablet).
`Nc1nc(-c2ccccc2)nc2[nH]nc(Nc3ccc(C(F)(F)F)cc3)c12` gave a concentration of 1100 ng/mL (mouse, plasma; oral, 100 mg/kg, 2 h).
For `Cc1cc(C)nc(Nc2ncc(C(=O)NCCc3c(C)[nH]c4ccccc34)cn2)c1`, the Cmax was 1320 ng/mL (C57BL/6 mouse, plasma; intraperitoneal, 8.8 mg/kg).
`CN1CCN(S(=O)(=O)c2cc([N+](=O)[O-])ccc2N(CCOS(C)(=O)=O)CCOS(C)(=O)=O)CC1` gave an MRT(0-inf) of 0.32 h (female SCID mouse, plasma; intraperitoneal, 5 mg/kg).
With `Cc1[nH]c(C)c(S(=O)(=O)Nc2ccc(S(=O)(=O)F)c(Cl)c2)c1C(=O)N1CCC(F)(F)C1` the Papp was 1.2 ×10⁻⁶ cm/s (PAMPA).
The Papp of `CCC[C@@](N)(CO)CCc1ccc(OCCCCCC(C)C)cc1` is reported as ≤ 0.5 ×10⁻⁶ cm/s (Caco-2).
With `Nc1ncc(-c2nc(N3CCOCC3)nc(N3CCOCC3)n2)c(C(F)F)n1` the remaining binding was 99% (MAPK4 (Homo sapiens, UniProt P31152); binding, competition with immobilised ligand; 10 µM).
`CCCCN(C)CC#Cc1ccc2[nH]c(C)c(Cl)c(=O)c2c1` has an IC50 of > 10 µM (PFF0160c (Plasmodium falciparum, UniProt Q08210, E182D); enzyme activity, inhibitor, absorbance).
`COc1ccc(F)cc1C(=O)NCc1ccc(-c2nn([C@@H](C)C(F)(F)F)c(N)c2C(N)=O)cc1` gave an AUC(0-t) of 55000 ng·h/mL (human, plasma; oral, 200 mg, single dose).
For `N=c1c2c(-c3ccccc3)c(-c3ccccc3)n(Cc3ccccc3)c2ncn1[C@H]1CC[C@H](O)CC1`, the AUC(0-t) was 10100 ng·h/mL (male beagle dog, plasma; oral, 1 mg/kg, single dose).
With `CC(=O)c1c(C)c2cnc(Nc3ccc(C4CCN(CCS(C)(=O)=O)CC4)cn3)nc2n(C2CCCC2)c1=O` the AUC(0-t) was 618 ng·h/mL (female beagle dog, plasma; oral, 6 mg/kg, multiple doses, once daily).
For `CC(C)(N)CNC(=O)O[C@@H]1CCC[C@]2(C1)OOC1(O2)C2CC3CC(C2)CC1C3` (stereo partly shown), the AUC(0-t) was 458 ng·h/mL (male CD-1 mouse, plasma; intravenous, 3 mg/kg).
For `[2H]c1c([2H])c([C@]2([2H])CCCN2C(=O)C(C)(C)Oc2ccc3cn[nH]c3c2)c([2H])c([2H])c1C([2H])([2H])[2H]`, the remaining binding was 90% (PIM2 (Homo sapiens, UniProt Q9P1W9); binding, competition with immobilised ligand; 1 µM).
`CC(C)C[C@H](NC(=O)[C@H](Cc1ccccc1)NC(=O)[C@H](Cc1ccccc1)NC(=O)Cc1ccc(-c2ccccc2)cc1)C(=O)N[C@@H](CCCCN)C(=O)N[C@@H](CCCNC(=N)N)C(=O)N[C@H](C(=O)N[C@@H](Cc1c[nH]c2ccccc12)C(=O)N[C@@H](CCCCN)C(=O)N[C@@H](CCCNC(=N)N)C(=O)O)C(C)C` has a compound remaining of 59.7% (metabolic stability, mass spectrometry; human, liver microsomes; 5 min).
`CN1C(=O)Cc2ccc(F)c(CCNC[C@H]3CN(c4ccc5c(n4)NC(=O)CO5)C(=O)O3)c21` gave a hepatocyte CLint of 9 µL/min/10⁶ cells (metabolic stability; human, hepatocytes; 0.5 µM).
The Papp A→B of `C/C=C1/CN2CC[C@]34C(=Nc5ccccc53)[C@@H]2C[C@@H]1C4(COC(C)=O)C(=O)OC` (stereo partly shown) is reported as 38.8 ×10⁻⁶ cm/s (Caco-2; pH 7.4).
With `N=C(N)NCCC[C@@H](NC(=O)[C@@H](N)Cc1ccccc1)C(=O)N[C@@H](Cc1ccccc1)C(=O)N[C@@H](CCCCN)C(N)=O` the AUC(0-t) was 817 ng·h/mL (human, plasma; subcutaneous, 5 mg, multiple doses, once daily, patients).
`CCOC(=O)c1c(NC(=O)CNC(C)C)sc2c1CCCCC2` gave an MRT(0-inf) of 2.38 h (male mouse, brain; intraperitoneal, 100 mg/kg, single dose).
`Cl.Cn1c(=O)n(CCCCN2CCC3(CC2)OCc2ccccc23)c2ccccc21` gave an AUC(0-t) of 6400 ng·h/mL (male Sprague-Dawley rat, plasma; intravenous, 10 mg/kg).
`CC1(C)NC(=O)N(c2ccc(F)c(C(F)(F)F)c2F)C1=O` gave a microsomal CLint of 9 µL/min/mg (metabolic stability; mouse, liver microsomes).
With `CC[C@H](C)[C@H](N)C(=O)N[C@@H](CC(C)C)C(=O)NCC(=O)N[C@@H](CCCNC(=N)N)C(=O)N[C@H](C(=O)N[C@@H](Cc1c[nH]c2ccccc12)C(=O)N[C@@H](CCCCN)C(=O)NCC(=O)N[C@H](C(=O)N[C@@H](CCCCN)C(=O)N[C@@H](CC(=O)O)C(=O)N[C@H](C(=O)N[C@@H](CC(C)C)C(N)=O)[C@@H](C)CC)[C@@H](C)CC)[C@@H](C)CC` the compound remaining was ~35% (chemical stability, HPLC; human, serum; 1 mg/mL, 2 h).
`C/C=C1/CN2CC[C@]34C(=C(C(=O)OC)[C@H]1C[C@H]23)Nc1ccccc14` gave an efflux ratio of 1 (Caco-2; 10 µM, 2 h, pH 7.4).
The IC50 of `COc1ccccc1NC(=O)CSc1nc2cccnc2n1-c1ccccc1OC` is reported as 7.22 µM (PFF0160c (Plasmodium falciparum, UniProt Q08210); enzyme activity, inhibitor, absorbance).
`COC(=O)c1cc(-c2cccc(NC(=O)Nc3ccccc3)c2)on1` has an MIC of > 64 µg/mL (Klebsiella pneumoniae; microbial growth, broth dilution; BAA1705).
The half-life of `NC(=O)CC[C@@H]1NC(=O)[C@H](Cc2ccccc2)NC(=O)[C@H](Cc2ccc(O)cc2)NC(=O)[C@@H](N)CSSC[C@@H](C(=O)N2CCC[C@H]2C(=O)N[C@@H](CCCN=C(N)N)C(=O)NCC(N)=O)NC(=O)[C@H](CC(N)=O)NC1=O` is reported as 0.86 h (chemical stability; male human, serum; 490 µM).
`C/C=C1/CN2[C@@H]3C[C@@]45c6ccccc6N[C@]4(O3)[C@@H]2C[C@@H]1[C@@]5(COC(C)=O)C(=O)OC` gave a Papp A→B of 28 ×10⁻⁶ cm/s (Caco-2; pH 7.4).
